Assay results collected from several papers.
A part holds a random share of what one study measured.

Set 1
Target: RNA binding protein fox-1 homolog 2, RRM domain, GST-SBP tag (RBFOX2, Homo sapiens, UniProt O43251-10, residues 100-194)
Method: RNA Bind-n-Seq
Molecule type: RNA
Sample: in vitro
Tested at: 365 nM
Setting: natural RNA segment, single round, ends assumed
Relative to: no-protein control
Reading: higher = stronger binding
Target sequence (chain): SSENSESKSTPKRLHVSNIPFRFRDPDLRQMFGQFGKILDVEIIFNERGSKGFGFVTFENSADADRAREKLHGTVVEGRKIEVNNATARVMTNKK
Strand	RBNS enrichment (R)
GGGAGUUCUACAGUCCGACGAUCUUUUUUUUGGUUUCUUGAGACAGGGUUUCUCUGUUUAGCUCUGGCUGUAGACCAGCUGGCCUCAAACUCAGAAAUCCGCCUGUCUCUGCCUCCCGAGCACUGGGAUUAAAUGGAAUUCUCGGGUGCCAA	0.266
GGGAGUUCUACAGUCCGACGAUCGCCUCAGCCACAAACCUAAAGGAGCUGCCUGUGUCUGACAGCACAGCCAUUCCAUCUCUUCCGUCCGUCUGUCUGUCUGGGUUGUUUUGUUUUGUUGUUGUUUUGAGACAUGGAAUUCUCGGGUGCCAA	0.836
GGGAGUUCUACAGUCCGACGAUCAGUGGCCCAGACGCUGCUUUGUGCUAAAAGCAUGGGAAAUGUAAAGGCAGUCUUUCUCUGGGAAAUGGAUGCUAUUCUAUUCUGCUGCCCCUACCUGUUCCUGAGGCCUCUGGAAUUCUCGGGUGCCAA	1.74
GGGAGUUCUACAGUCCGACGAUCAUGGCGCCAUUGCACUCCAGCCUGGGUGACAAGAGUGAAACUCCAUCUCAAAAAAAAAGAAAAGAAGGUCCAGCUUUUGGAUUCAAUGAGUGGGAAAUACAUUGUGCCUUUGGAAUUCUCGGGUGCCAA	0.781

Set 2
Target: Sal-like protein 4, full length isoform B (SALL4, Homo sapiens, UniProt Q9UJQ4-2, residues 1-616)
Method: universal PBM
Molecule type: double-stranded DNA, one strand shown
Sample: in vitro
Tested at: not given
Setting: 8-mer, flanks averaged, mean of replicates
Reading: higher = stronger binding
Strand	E-score
TGATCACA	0.0544
CAAGTCAA	0.0991
AACTAAAC	0.0527
CAAGATAC	0.181
ATAGACAA	0.177
ATGCTCTG	-0.0761

Set 3
Target: Interferon regulatory factor 5, full length, phosphomimetic (IRF5, Homo sapiens, UniProt Q13568-2, residues 1-514, K96S/S451D/S453D/S456D/S462D)
Method: protein-binding microarray
Molecule type: double-stranded DNA, one strand shown
Sample: in vitro
Tested at: 250 nM
Setting: 60-bp whole probe
With: salmon DNA 0.4 mg/ml
Relative to: random background probes
Reading: higher = stronger binding
Shared flanks, not repeated: GCCTAGCAC … GTCTTGATTCGCTTGACGCTGCTG
Strand	log fluorescence [z-score]
GACGGTTTCCAACTGCTGACGTGCTAG	0.2
CCTATCTTATGATATATATAAGTGCTA	0.671
GACGGTATCGGGACTGGGAACGTGCTA	1.36
TTAGGTTTCGACTTTCGGTCAGTGCTA	10.5
GACGAACTGGGGTATCGACACGTGCTA	0.184

Mixed results
Molecule	target	test	test system	conditions	how to read	measurement	result
PhoQ, residues 284 288 289 292 302 303 SNSSNI	PhoP, residues 12 14 15 18 19 STWGI (Escherichia coli, UniProt P23836)	Sort-seq, refers to: YFP reporter	E. coli	PhoQ-PhoP variant library, with: 10 µM Mg2+	relative to: high Mg2+ state, higher = stronger signaling	fold induction	0.442

Repeated from above (set 3):
Strand	log fluorescence [z-score]
TTAGGTTTCGACTTTCGGTCAGTGCTA	10.5
GACGAACTGGGGTATCGACACGTGCTA	0.184
